Published values from different studies.
Lines come from different studies, so protocols differ. Several values in a cell are separate wells, animals, samples, runs or records.
T1: itself; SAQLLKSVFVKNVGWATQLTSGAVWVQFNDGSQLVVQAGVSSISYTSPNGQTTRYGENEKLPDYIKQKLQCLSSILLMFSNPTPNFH
T2: itself; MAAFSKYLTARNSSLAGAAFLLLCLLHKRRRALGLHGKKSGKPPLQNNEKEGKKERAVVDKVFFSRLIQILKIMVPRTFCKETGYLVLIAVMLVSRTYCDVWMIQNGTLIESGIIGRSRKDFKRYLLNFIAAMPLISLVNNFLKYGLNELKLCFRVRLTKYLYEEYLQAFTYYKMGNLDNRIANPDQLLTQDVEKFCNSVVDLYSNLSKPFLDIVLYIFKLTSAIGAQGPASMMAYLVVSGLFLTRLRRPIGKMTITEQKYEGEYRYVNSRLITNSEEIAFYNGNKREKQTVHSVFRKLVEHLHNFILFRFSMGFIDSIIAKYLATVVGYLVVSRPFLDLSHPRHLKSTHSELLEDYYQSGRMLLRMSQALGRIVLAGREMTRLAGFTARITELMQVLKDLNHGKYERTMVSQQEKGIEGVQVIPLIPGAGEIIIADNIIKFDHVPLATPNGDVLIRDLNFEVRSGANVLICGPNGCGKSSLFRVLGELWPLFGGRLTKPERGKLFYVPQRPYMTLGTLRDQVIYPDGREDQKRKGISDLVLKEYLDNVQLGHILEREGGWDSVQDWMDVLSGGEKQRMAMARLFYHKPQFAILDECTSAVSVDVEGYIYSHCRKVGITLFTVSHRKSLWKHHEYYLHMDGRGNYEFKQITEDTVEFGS
T3: itself; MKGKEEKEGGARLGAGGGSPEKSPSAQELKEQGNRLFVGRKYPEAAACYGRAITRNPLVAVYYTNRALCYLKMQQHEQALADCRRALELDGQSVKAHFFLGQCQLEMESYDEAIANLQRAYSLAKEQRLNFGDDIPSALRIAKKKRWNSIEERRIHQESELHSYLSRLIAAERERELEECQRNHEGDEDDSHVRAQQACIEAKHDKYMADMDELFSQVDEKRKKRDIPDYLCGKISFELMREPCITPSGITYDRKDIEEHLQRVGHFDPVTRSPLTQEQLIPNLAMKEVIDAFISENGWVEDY
T4: itself; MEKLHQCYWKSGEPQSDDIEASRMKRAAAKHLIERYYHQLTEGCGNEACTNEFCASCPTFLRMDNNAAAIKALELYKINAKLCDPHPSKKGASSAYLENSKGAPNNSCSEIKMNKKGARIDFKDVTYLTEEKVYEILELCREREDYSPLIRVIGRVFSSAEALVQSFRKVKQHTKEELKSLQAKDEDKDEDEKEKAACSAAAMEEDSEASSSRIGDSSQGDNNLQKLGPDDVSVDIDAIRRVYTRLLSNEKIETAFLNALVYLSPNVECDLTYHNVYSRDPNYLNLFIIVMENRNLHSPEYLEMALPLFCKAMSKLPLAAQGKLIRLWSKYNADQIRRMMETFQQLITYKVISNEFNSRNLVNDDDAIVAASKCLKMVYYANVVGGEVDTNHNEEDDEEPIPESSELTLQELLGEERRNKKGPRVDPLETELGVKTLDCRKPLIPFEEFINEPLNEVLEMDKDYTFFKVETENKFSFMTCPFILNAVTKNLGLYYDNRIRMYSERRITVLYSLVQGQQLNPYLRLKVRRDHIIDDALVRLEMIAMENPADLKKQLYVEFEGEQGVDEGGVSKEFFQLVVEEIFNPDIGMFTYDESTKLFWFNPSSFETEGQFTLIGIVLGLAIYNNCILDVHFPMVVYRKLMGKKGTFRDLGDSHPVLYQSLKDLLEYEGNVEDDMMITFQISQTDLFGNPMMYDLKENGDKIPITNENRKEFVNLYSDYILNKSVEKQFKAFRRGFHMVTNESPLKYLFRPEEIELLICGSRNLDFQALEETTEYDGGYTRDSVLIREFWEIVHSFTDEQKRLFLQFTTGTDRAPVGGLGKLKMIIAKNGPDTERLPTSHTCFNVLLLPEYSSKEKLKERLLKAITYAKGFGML
B1: Phl p 7 dimer (Phleum pratense, UniProt O82040); chain MADDMERIFKRFDTNGDGKISLSELTDALRTLGSTSADEVQRMMAEIDTDGDGFIDFNEFISFCNANPGLMKDVAKVF
B2: PLK4 884-970 (Homo sapiens, UniProt O00444); chain SAQLLKSVFVKNVGWATQLTSGAVWVQFNDGSQLVVQAGVSSISYTSPNGQTTRYGENEKLPDYIKQKLQCLSSILLMFSNPTPNFH
B3: Grm3 HA-SNAP tagged (Rattus norvegicus, UniProt P31422); chain LGDHNFMRREIKIEGDLVLGGLFPINEKGTGTEECGRINEDRGIQRLEAMLFAIDEINKDNYLLPGVKLGVHILDTCSRDTYALEQSLEFVRASLTKVDEAEYMCPDGSYAIQENIPLLIAGVIGGSYSSVSIQVANLLRLFQIPQISYASTSAKLSDKSRYDYFARTVPPDFYQAKAMAEILRFFNWTYVSTVASEGDYGETGIEAFEQEARLRNICIATAEKVGRSNIRKSYDSVIRELLQKPNARVVVLFMRSDDSRELIAAANRVNASFTWVASDGWGAQESIVKGSEHVAYGAITLELASHPVRQFDRYFQSLNPYNNHRNPWFRDFWEQKFQCSLQNKRNHRQVCDKHLAIDSSNYEQESKIMFVVNAVYAMAHALHKMQRTLCPNTTKLCDAMKILDGKKLYKEYLLKINFTAPFNPNKGADSIVKFDTFGDGMGRYNVFNLQQTGGKYSYLKVGHWAETLSLDVDSIHWSRNSVPTSQCSDPCAPNEMKNMQPGDVCCWICIPCEPYEYLVDEFTCMDCGPGQWPTADLSGCYNLPEDYIKWEDAWAIGPVTIACLGFLCTCIVITVFIKHNNTPLVKASGRELCYILLFGVSLSYCMTFFFIAKPSPVICALRRLGLGTSFAICYSALLTKTNCIARIFDGVKNGAQRPKFISPSSQVFICLGLILVQIVMVSVWLILETPGTRRYTLPEKRETVILKCNVKDSSMLISLTYDVVLVILCTVYAFKTRKCPENFNEAKFIGFTMYTTCIIWLAFLPIFYVTSSDYRVQTTTMCISVSLSGFVVLGCLFAPKVHIVLFQPQKNVVTHRLHLNRFSVSGTATTYSQSSASTYVPTVCNGREVLDSTTSSL
B4: STUB1 (Homo sapiens, UniProt Q9UNE7); chain MKGKEEKEGGARLGAGGGSPEKSPSAQELKEQGNRLFVGRKYPEAAACYGRAITRNPLVAVYYTNRALCYLKMQQHEQALADCRRALELDGQSVKAHFFLGQCQLEMESYDEAIANLQRAYSLAKEQRLNFGDDIPSALRIAKKKRWNSIEERRIHQESELHSYLSRLIAAERERELEECQRNHEGDEDDSHVRAQQACIEAKHDKYMADMDELFSQVDEKRKKRDIPDYLCGKISFELMREPCITPSGITYDRKDIEEHLQRVGHFDPVTRSPLTQEQLIPNLAMKEVIDAFISENGWVEDY
Chain of UniProt P26901 (whole entry, looked up): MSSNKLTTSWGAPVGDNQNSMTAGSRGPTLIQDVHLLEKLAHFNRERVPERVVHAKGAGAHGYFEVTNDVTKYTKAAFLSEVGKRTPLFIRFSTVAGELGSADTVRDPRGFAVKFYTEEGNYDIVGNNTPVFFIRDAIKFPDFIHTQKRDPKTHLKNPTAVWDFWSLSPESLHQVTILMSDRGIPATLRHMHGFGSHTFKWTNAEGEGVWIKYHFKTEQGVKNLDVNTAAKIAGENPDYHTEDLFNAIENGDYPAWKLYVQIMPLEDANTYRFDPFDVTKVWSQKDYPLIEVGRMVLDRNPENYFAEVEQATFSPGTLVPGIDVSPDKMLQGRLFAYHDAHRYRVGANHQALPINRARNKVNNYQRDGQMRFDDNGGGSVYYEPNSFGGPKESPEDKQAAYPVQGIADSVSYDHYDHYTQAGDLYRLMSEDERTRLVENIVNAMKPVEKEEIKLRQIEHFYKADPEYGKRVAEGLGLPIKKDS
Chain of UniProt Q9UHD2 (whole entry, looked up): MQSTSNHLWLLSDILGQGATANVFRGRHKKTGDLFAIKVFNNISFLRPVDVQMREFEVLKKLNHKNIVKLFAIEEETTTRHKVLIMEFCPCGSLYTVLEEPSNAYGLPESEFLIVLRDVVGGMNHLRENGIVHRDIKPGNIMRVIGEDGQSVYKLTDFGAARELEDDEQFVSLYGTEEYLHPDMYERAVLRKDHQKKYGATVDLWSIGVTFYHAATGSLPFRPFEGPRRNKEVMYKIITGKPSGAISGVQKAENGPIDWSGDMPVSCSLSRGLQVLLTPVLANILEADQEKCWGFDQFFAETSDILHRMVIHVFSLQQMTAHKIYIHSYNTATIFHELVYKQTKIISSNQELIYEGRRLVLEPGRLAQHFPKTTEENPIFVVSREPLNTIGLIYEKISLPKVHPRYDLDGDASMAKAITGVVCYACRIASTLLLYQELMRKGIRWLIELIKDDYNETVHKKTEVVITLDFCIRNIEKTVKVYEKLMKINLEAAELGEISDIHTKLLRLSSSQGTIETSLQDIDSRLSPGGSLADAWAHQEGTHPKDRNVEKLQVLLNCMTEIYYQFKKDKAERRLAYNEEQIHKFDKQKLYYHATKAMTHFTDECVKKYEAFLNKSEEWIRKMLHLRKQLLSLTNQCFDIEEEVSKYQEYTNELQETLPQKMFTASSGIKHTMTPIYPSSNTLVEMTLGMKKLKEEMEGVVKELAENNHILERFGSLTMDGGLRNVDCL
Chain of UniProt P26368 (whole entry, looked up): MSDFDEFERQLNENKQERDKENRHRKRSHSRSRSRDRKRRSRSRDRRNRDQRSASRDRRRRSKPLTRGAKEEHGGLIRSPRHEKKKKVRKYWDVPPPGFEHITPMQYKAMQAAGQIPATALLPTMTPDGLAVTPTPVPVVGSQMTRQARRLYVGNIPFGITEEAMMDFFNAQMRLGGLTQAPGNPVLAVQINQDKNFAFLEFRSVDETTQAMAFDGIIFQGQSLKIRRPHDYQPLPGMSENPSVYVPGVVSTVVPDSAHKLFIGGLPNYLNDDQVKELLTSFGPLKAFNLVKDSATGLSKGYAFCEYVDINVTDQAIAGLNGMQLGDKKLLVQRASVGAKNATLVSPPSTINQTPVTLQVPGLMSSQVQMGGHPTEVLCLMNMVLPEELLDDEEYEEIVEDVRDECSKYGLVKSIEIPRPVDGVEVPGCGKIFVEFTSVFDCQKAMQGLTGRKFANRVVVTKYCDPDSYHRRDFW
Chain of UniProt Q47839 (whole entry, looked up): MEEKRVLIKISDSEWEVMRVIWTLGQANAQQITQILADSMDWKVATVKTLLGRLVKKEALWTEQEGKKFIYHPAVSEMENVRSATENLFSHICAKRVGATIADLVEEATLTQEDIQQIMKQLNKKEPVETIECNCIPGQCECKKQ

`B1 (Phl p 7 dimer)` — result for “subunits per oligomer”: 2 (itself; SEC).
Under “subunits per oligomer”, `EPAS1/ARNT bHLH/PAS domains (Homo sapiens)` is recorded as 2 (itself; SEC-MALS).
`cyanophycin synthetase 2` — result for “subunits per oligomer”: 6 (itself; cryo-EM).
`MXAN_1565 GAF-AAA+ domains (Myxococcus xanthus)` — result for “subunits per oligomer”: 2 (itself; SEC).
Under “subunits per oligomer”, `popZ P146A (Caulobacter crescentus)` is recorded as 3 (itself; mass photometry; 250 nM, no MgCl2).
`ACAT1 fragment, pY407 (Homo sapiens)`: “subunits per oligomer” 4 (itself; native gel; phosphorylated, wild type).
Under “subunits per oligomer”, `B2 (PLK4 884-970)` is recorded as 2 (T1, itself; SEC-MALS).
`popZ (Caulobacter crescentus)` — result for “subunits per oligomer”: 3 and 6 (itself; mass photometry; 250 nM).
Under “subunits per oligomer”, `ALDH7A1 fragment (Homo sapiens)` is recorded as 4 (itself; AUC; with: NAD 1 mM).
For `aceF catalytic domain , homotrimer (Escherichia coli)`, “subunits per oligomer” read 3 (itself; SEC).
For `Maackia amurensis seed lectin (Maackia amurensis)`, “subunits per oligomer” read 2 (itself; nonreducing SDS-PAGE).
With `human ME2 Q101T` the activation fold was 1 (enzyme activity, activator, NADH absorbance; recombinant enzyme; range over 0 to 5 mM, pH 7.4; relative to: wild type).
For `katA dimer (Bacillus subtilis, UniProt P26901)`, “subunits per oligomer” read 2 (itself; SEC).
`ccmK2 fragment H75N/H76N/H82N (Synechococcus elongatus)` — result for “subunits per oligomer”: 6 (itself; SEC).
For `SIR2 L97A/I101A/K106A/I107A (Paenibacillus sp.)`, “subunits per oligomer” read 2 (itself; SEC, AUC; mutant).
For `ABCD3 (Homo sapiens, UniProt P28288)`, “subunits per oligomer” read 2 (T2, itself; cryo-EM).
`atpC fragment (Mycobacterium abscessus)` — result for “subunits per oligomer”: 2 (itself; native gel EMSA).
For `sodN mature R47A (Streptomyces coelicolor)`, “subunits per oligomer” read 6 and 3 (itself; SEC).
For `IgM (Homo sapiens)`, “subunits per oligomer” read 5 (itself; negative-stain electron microscopy).
For `UDP-2,3-diacylglucosamine hydrolase (Caulobacter crescentus)`, “subunits per oligomer” read 2 (itself; SEC).
`bioE (Elizabethkingia meningoseptica)` — result for “subunits per oligomer”: 2 (itself; SEC).
`B3 (Grm3 HA-SNAP tagged)` — result for “subunits per oligomer”: 2 (itself; single-molecule pulldown; cell lysate; with: agonist 45 min).
`TBK1, pS172 (human, UniProt Q9UHD2)` — result for “subunits per oligomer”: 2 (itself; SEC-MALS).
`clcA fragment C85A/H234C/F219A/I220A/I223A/I227A (Escherichia coli)` — result for “subunits per oligomer”: 2 (itself; SEC).
`APOE apoE4 V236E (Homo sapiens)` — result for “subunits per oligomer”: 2 (itself; AUC; 30 µM).
`ERF fragment (Homo sapiens)`: “subunits per oligomer” 4 (itself; crystal structure; oxidised, Cys72 disulfide, with: DNA).
`VPS1 I649K (Saccharomyces cerevisiae)`: “subunits per oligomer” 2 (itself; cross-linking).
`CRYBB2 Q70E/Q162E (Homo sapiens)` — result for “subunits per oligomer”: 2 (itself; SEC-MALS).
`CAMK2D F368A/Q407A (Homo sapiens)` — result for “subunits per oligomer”: 2 (itself; mass photometry).
`TPI1 (Homo sapiens)` — result for “subunits per oligomer”: 2 (itself; native MS; not purified).
Under “subunits per oligomer”, `comFB (Thermoanaerobacter brockii)` is recorded as 2 (itself; SEC-MALS).
Under “subunits per oligomer”, `concanavalin A` is recorded as 2 (itself; native MS).
`SELENOS Sec to Cys (Homo sapiens)` — result for “subunits per oligomer”: 2 (itself; non-reducing SDS-PAGE Western blot; not purified).
For `B4 (STUB1)`, “subunits per oligomer” read 2 (T3, itself; mass photometry; pH 7.4).
`GCN2 HisRS-like domain (Chaetomium thermophilum)`: “subunits per oligomer” 2 (itself; SEC-MALS).
`sodN mature E17A/R47A (Streptomyces coelicolor)` — result for “subunits per oligomer”: 3 and 6 (itself; SEC).
`UBE3A (Homo sapiens, UniProt Q05086)`: “subunits per oligomer” 4 and 2 (T4, itself; mass photometry).
`LECA (Pisum sativum)`: “subunits per oligomer” 2 (itself; SAXS).
For `csm6 (Thermococcus onnurineus)`, “subunits per oligomer” read 2 (itself; X-ray crystallography; apo, wild type).
`popZ fragment (Caulobacter crescentus)`: “subunits per oligomer” 6 (itself; cryo-electron tomography).
Under “subunits per oligomer”, `pAgo-associated nuclease fragment D298A (Escherichia coli)` is recorded as 2 (itself; SEC).
`ALD1 fragment (Toxoplasma gondii)` — result for “subunits per oligomer”: 4 (itself; crystal structure).
`Gl2 (Gossypium hirsutum)`: “subunits per oligomer” 4 (itself; SEC-MALS).
For `copY (Enterococcus hirae, UniProt Q47839)`, “subunits per oligomer” read 2 (itself; AUC).
`UAUCUUACU (ssRNA)` has a Kd of 3.31 µM (U2AF2 148-342 (Homo sapiens, UniProt P26368); sequencing of bound RNA; RNA; motif only).

For quick reference, copied from above:
Under “subunits per oligomer”, `ALDH7A1 fragment (Homo sapiens)` is recorded as 4 (itself; AUC; with: NAD 1 mM).
For `SIR2 L97A/I101A/K106A/I107A (Paenibacillus sp.)`, “subunits per oligomer” read 2 (itself; SEC, AUC; mutant).
Under “subunits per oligomer”, `B2 (PLK4 884-970)` is recorded as 2 (T1, itself; SEC-MALS).
`VPS1 I649K (Saccharomyces cerevisiae)`: “subunits per oligomer” 2 (itself; cross-linking).
Under “subunits per oligomer”, `concanavalin A` is recorded as 2 (itself; native MS).
